Measurements gathered from unrelated publications.
Protocols differ between the studies behind these lines. ± gives the spread as reported.

NC(=O)C1=CN([C@@H]2O[C@H](COP(=O)(O)OP(=O)(O)OC[C@H]3O[C@@H](n4cnc5c(N)ncnc54)[C@H](OP(=O)(O)O)[C@@H]3O)[C@@H](O)[C@H]2O)C=CC1  log2 fold change (binding, MIDAS equilibrium dialysis LC-MS; A2AR-BRIL thermostabilized; concentration not given; baseline: no-protein control): -0.576
CCc1nc(C(N)=O)c(Nc2ccc(N3CCC(N4CCN(C)CC4)CC3)c(OC)c2)nc1NC1CCOCC1  IC50 (primary AML mononuclear cells, FLT3-ITD negative; cell viability, MTS; ex vivo): 2.96 µM
Cc1[nH]c(/C=C2\C(=O)Nc3ccc(S(=O)(=O)N(C)c4cccc(Cl)c4)cc32)c(C)c1C(=O)N1CCN(C)CC1  IC50 (Rh6 (embryonal rhabdomyosarcoma); cell growth; 3 days): 1.84 ± 0.7 µM
C[C@H](Nc1ccc2c(c1)OCCn1cc(N3C(=O)OC[C@H]3C(F)F)nc1-2)C(N)=O  IC50 (MDA-MB-361; growth rate inhibition, CellTiter-Glo; 120 h): 0.0029 µM
C=CCCCCCCCCCCCC(O)CC(O)CO (stereo not shown)  IC50 (Vero; cytotoxicity): > 47.6 µg/mL
O=C(O)COCC(=O)O  IC50 (iPSC-derived hepatocytes B1; cell viability; 72 h, differentiation day 23): 11100 µM
C[C@@H]1CC[C@@H]([C@](C)(O)CNCc2ccccc2F)[C@H](OCc2ccccc2)C1  IC50 (HeLa; cell growth, inhibitor, MTT; 72 h): 6.51 µM
Cc1c(C(=O)O)ccc2c3n(nc12)[C@@H]1[C@H](C3)N(CC2CC2)[C@@]2(C(=O)Nc3cc(Cl)ccc32)[C@H]1c1cccc(Cl)c1F  IC50 (MDM2-amplified well-differentiated liposarcoma cells; alamarBlue; 120 h): 0.005 µM
O=C(c1cc(Cc2n[nH]c(=O)c3ccccc23)ccc1F)N1CCN(C(=O)C2CC2)CC1  IC50 (SK-OV-3 PALB2 knockout; colony formation): 0.0139 µM
COc1cc2c3c(n(CCCN4CCOCC4)c(=O)c2cc1OC)-c1nc2c(cc1C3=O)OCO2  IC50 (CHLA-99 Ewing sarcoma cells; cytotoxicity, MTS; 72 h): 0.526 ± 0.028 µM
CC(C)c1ccccc1[C@@H]1CCCN1C1CC2(CCN(c3ccc(C(=O)NS(=O)(=O)c4ccc(NC[C@H]5CC[C@](C)(O)CC5)c([N+](=O)[O-])c4)c(Oc4cnc5[nH]ccc5c4)c3)CC2)C1  IC50 (RL; cell viability, CellTiter-Glo; 2 days): 0.003 ± 0.00096 µM
O=P1(C2CCCCC2)CCCCC1  IC50 (SW480; cytotoxicity, MTT; 72 h): 13.8 to 16.1 µM
COc1cc2c(Oc3ccc(NC(=O)C4(C(=O)Nc5ccc(F)cc5)CC4)cc3F)ccnc2cc1OCCCN1CCOCC1  IC50 (Rh2 (embryonal rhabdomyosarcoma); cell growth; 3 days): 0.23 ± 0.06 µM
CCCCN1C[C@H](O)[C@@H](O)[C@@H](O)[C@H]1CO  IC50 (sample D patient fibroblasts; GlcCer level lowering, LC-MS/MS, item: GlcCer d18:1/16:0; 216 h): 20.5 µM
COc1cccc2c1C(=O)c1c(O)c3c(c(O)c1C2=O)C[C@@](O)(C(=O)CO)C[C@@H]3O[C@H]1C[C@H](N)[C@H](O)[C@H](C)O1  IC50 (S102; cytotoxicity, MTT; 75 h): 1.98 µM
Cc1c(C)c2c(c(C)c1O)CCC(C)(COc1ccc(CC3SC(=O)NC3=O)cc1)O2 (stereo not shown)  IC50 (iPSC-derived hepatocytes B1; cell viability; 72 h, differentiation day 23): 48 µM
COC(=O)CN=c1scc(-c2ccccc2)n1-c1ccc(C)cc1  IC50 (Panc 04.03; cell viability, MTT; 72 h): 44.6 µM
COc1nc(OCc2cccc(-c3ccccc3)c2C)ccc1CNCCNC(C)=O  IC50 (LO2; cell viability, MTT): 2.5 µM
Cc1c2ccnc(C(=O)NCCN(C)C)c2cc2c3cc(O)ccc3n(C)c12  IC50 (HEK-293T transfected (G4C2)66-GFP; RAN translation, item: GFP): 0.3 µM
CC1(COc2ccc3c(c2)ncn3-c2ccc3cccc(N4CCC(N)CC4)c3n2)COC1  IC50 (primary AML mononuclear cells, FLT3-ITD negative; cell viability, MTS; ex vivo): 7.51 µM
C[C@@H](Oc1cc(-c2cnn(C3CCNCC3)c2)cnc1N)c1c(Cl)ccc(F)c1Cl  IC50 (Rh6 (embryonal rhabdomyosarcoma); cell growth; 3 days): 0.9 ± 0.15 µM
C#CCCCCCCCCCCCC(O)CC(O)CO (stereo not shown)  IC50 (Vero; cytotoxicity): > 47.6 µg/mL
Cn1ncnc1[C@H]1c2n[nH]c(=O)c3cc(F)cc(c23)N[C@@H]1c1ccc(F)cc1  IC50 (SK-OV-3 PALB2 knockout; colony formation): 0.000549 µM
CC(=O)N[C@@H](CC(=O)O)C(=O)O  log2 fold change (binding, MIDAS equilibrium dialysis LC-MS; A2AR-BRIL thermostabilized; concentration not given; baseline: no-protein control): -0.0919
Cc1cnc(-c2ccc(-c3ccc(NC(=O)Nc4c(F)cc(F)cc4F)cc3F)c3c2C(=O)NC3)[nH]1  IC50 (primary AML mononuclear cells, FLT3-ITD negative; cell viability, MTS; ex vivo): 0.535 µM
CN(C)c1ccc2cc(C(=O)N[C@@H](CCCNC(=N)CCl)C(=O)NCc3ccccc3)ccc2c1  IC50 (LLC; cell viability, MTT; 48 h): 6.1 ± 1.6 µM
CC(C)=CCC/C(C)=C/COc1ccc2ccc(=O)oc2c1  IC50 (COLO 320 multidrug-resistant; cytotoxicity, MTT; 24 h, 10% fetal bovine serum): 47.3 µM
COc1ccc(COC[C@@](O)(CNCc2ccccc2)[C@@H]2CC[C@@H](C)C[C@H]2OCc2ccc(OC)cc2)cc1  IC50 (HeLa; cell growth, inhibitor, MTT; 72 h): 3.67 µM
COC(=O)CN=c1scc(-c2ccccc2)n1-c1ccc(OC)cc1  IC50 (Panc 04.03; cell viability, MTT; 72 h): 33.4 µM
Cn1cc(-c2ccc(-c3cncc(Cl)c3N3CCC4(CCNC4=O)CC3)cc2)cn1  fold change in expression (COLO 205; microarray, item: WWTR1; concentration not given, 2 h, gene set TAZ; baseline: untreated cells): -1.97
COc1ccc(F)cc1C(=O)NCc1ccc(-c2nn([C@@H](C)C(F)(F)F)c(N)c2C(N)=O)cc1  IC50 (Rec1; item: G-CSF; 24 h): > 0.1 µM
CC(=O)N1CCC(Nc2cc(C(=O)NC[C@H](O)CN3CCc4ccccc4C3)ncn2)CC1  IC50 (PK-1 MTAP deleted; cell viability; 240 h): 0.024 µM
O=C1CC[C@H](N2Cc3cc(N4CCN(CC5CCN(c6ccc([C@@H]7c8ccc(O)cc8CC[C@@H]7c7ccccc7)cc6)CC5)CC4)ccc3C2=O)C(=O)N1  IC50 (T47D-KBluc; reporter gene, antagonist, ERE-luciferase; 24 h, added: estradiol): 0.0011 µM
C=C1C[C@](OC)([C@H](OCOC/C=C/B2OC(CC)(CC)C(CC)(CC)O2)C(=O)NC[C@@H]2C[C@@H](OC)C(C)(C)[C@@H](C[C@@H](COC)OC)O2)O[C@H](C)[C@@H]1C  IC50 (Renca; cell viability, sulforhodamine B; 72 h, 37 °C, without H2O2): 0.0037 ± 0.0002 µM

Some of these lines once more:
COC(=O)CN=c1scc(-c2ccccc2)n1-c1ccc(C)cc1  IC50 (Panc 04.03; cell viability, MTT; 72 h): 44.6 µM
NC(=O)C1=CN([C@@H]2O[C@H](COP(=O)(O)OP(=O)(O)OC[C@H]3O[C@@H](n4cnc5c(N)ncnc54)[C@H](OP(=O)(O)O)[C@@H]3O)[C@@H](O)[C@H]2O)C=CC1  log2 fold change (binding, MIDAS equilibrium dialysis LC-MS; A2AR-BRIL thermostabilized; concentration not given; baseline: no-protein control): -0.576
